Assay results from different studies.
Numbered parts are unrelated; each lists some results of a single study.
UniProt P37173, sequence (whole entry, looked up): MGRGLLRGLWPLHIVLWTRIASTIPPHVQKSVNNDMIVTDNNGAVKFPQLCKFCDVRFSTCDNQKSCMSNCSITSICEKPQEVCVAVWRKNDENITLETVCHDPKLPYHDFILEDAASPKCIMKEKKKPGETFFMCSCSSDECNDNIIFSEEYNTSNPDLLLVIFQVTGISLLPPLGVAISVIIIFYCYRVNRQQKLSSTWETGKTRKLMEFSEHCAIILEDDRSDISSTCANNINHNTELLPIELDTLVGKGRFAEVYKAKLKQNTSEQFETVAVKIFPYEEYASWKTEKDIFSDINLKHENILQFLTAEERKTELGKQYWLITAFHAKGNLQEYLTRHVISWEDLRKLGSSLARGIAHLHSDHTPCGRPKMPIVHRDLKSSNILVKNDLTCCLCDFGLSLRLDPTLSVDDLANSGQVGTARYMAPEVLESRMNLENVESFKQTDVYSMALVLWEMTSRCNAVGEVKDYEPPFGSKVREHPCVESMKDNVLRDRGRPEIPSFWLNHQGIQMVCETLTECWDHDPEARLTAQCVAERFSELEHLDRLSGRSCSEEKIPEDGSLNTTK
UniProt Q13557, sequence (whole entry, looked up): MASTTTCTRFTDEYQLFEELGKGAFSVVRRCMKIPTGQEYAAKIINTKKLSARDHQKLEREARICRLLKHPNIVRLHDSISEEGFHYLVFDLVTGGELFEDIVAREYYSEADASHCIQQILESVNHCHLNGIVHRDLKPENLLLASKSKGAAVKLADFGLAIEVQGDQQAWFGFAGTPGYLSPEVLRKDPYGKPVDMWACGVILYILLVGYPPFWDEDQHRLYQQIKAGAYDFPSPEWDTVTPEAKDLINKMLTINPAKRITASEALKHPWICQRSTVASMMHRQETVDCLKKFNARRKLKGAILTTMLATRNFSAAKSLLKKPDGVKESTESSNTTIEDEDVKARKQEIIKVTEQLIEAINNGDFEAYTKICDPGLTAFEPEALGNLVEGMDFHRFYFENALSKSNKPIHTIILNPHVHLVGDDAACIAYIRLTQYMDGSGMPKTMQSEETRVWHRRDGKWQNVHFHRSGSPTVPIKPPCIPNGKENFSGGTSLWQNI
UniProt Q9UKI8, sequence (whole entry, looked up): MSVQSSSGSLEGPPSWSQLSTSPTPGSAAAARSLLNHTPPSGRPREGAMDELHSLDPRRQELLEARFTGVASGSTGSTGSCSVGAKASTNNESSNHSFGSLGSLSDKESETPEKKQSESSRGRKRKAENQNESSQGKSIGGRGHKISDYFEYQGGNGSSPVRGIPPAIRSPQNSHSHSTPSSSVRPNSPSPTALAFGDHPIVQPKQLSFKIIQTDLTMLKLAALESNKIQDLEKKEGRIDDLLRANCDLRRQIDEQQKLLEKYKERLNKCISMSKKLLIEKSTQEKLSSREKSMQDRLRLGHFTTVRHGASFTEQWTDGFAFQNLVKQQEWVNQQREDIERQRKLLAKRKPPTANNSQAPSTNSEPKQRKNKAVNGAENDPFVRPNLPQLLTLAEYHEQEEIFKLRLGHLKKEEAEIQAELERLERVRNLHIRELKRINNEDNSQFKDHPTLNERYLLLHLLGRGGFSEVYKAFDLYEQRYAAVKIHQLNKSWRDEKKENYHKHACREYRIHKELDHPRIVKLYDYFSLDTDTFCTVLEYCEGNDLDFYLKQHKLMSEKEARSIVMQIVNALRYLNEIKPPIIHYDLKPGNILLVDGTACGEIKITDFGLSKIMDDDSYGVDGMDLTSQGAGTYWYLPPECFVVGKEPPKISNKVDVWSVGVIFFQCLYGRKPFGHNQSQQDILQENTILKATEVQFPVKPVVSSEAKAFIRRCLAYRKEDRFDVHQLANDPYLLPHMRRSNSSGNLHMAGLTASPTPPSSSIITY
UniProt Q00535, sequence (whole entry, looked up): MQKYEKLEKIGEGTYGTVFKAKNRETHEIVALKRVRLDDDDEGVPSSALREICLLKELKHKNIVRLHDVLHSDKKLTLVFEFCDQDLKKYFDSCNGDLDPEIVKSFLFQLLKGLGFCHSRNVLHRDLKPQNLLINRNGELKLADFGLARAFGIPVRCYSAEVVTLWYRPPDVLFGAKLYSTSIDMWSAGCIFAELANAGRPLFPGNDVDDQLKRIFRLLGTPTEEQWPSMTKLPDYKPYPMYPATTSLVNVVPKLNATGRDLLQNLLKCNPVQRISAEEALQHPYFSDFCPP
UniProt Q6PHR2, sequence (whole entry, looked up): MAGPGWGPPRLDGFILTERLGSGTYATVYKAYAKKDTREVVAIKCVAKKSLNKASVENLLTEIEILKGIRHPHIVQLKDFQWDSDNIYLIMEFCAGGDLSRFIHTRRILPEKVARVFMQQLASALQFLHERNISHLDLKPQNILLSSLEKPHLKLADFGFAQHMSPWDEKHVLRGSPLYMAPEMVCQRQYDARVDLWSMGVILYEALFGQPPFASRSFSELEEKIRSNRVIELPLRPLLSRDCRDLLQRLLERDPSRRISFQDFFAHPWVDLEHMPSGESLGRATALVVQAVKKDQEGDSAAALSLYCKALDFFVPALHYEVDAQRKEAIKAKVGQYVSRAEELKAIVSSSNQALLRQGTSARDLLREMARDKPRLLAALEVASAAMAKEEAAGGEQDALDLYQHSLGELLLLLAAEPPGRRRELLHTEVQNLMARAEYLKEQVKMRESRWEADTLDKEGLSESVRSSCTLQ
UniProt Q8WXR4, sequence (whole entry, looked up): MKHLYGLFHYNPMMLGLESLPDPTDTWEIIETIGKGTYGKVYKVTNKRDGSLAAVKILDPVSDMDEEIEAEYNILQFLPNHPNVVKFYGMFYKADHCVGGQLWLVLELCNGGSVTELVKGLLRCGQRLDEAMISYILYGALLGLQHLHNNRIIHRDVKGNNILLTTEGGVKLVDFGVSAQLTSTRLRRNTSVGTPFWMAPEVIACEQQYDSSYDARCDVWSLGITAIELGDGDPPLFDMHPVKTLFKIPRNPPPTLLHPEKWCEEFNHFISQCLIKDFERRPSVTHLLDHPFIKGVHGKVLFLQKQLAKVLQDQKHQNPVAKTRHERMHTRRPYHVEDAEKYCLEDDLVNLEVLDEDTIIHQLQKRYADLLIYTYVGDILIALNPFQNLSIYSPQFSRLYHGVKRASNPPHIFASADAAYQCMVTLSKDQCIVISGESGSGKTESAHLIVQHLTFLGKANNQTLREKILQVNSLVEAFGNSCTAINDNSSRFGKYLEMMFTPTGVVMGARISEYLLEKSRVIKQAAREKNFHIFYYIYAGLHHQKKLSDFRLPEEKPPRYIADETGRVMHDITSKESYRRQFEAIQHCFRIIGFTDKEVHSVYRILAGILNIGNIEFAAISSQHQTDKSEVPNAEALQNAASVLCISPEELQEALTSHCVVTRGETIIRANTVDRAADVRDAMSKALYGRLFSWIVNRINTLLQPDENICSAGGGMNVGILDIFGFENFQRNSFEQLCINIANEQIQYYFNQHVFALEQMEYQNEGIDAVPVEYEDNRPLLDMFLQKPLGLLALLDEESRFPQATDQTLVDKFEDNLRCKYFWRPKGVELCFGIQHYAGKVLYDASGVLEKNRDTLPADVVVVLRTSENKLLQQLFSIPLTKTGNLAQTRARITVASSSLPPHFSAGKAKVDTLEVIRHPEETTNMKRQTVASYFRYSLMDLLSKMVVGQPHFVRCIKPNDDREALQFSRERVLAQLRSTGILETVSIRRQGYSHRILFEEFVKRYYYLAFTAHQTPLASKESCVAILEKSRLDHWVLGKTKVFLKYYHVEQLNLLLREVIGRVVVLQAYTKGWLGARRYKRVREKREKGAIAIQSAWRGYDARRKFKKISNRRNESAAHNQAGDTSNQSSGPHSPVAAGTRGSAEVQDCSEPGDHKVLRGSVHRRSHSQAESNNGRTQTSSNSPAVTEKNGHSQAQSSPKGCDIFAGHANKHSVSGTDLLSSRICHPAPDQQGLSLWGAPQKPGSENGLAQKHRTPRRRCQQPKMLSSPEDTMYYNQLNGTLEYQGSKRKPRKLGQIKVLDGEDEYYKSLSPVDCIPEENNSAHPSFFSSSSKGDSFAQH
UniProt O95747, sequence (whole entry, looked up): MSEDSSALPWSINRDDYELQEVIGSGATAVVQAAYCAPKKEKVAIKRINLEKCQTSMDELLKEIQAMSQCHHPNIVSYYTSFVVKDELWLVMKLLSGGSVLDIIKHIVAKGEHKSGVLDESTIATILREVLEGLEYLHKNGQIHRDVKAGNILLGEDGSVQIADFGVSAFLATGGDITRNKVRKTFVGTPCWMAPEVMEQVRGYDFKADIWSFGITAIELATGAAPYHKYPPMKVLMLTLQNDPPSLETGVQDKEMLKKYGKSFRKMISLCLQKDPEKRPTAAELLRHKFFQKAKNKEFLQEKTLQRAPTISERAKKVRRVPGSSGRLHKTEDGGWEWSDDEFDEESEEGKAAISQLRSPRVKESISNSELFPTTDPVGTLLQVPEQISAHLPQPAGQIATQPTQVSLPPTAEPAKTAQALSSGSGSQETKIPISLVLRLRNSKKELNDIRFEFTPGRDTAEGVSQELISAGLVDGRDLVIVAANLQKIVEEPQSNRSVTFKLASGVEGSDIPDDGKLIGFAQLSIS
UniProt Q96D53, sequence (whole entry, looked up): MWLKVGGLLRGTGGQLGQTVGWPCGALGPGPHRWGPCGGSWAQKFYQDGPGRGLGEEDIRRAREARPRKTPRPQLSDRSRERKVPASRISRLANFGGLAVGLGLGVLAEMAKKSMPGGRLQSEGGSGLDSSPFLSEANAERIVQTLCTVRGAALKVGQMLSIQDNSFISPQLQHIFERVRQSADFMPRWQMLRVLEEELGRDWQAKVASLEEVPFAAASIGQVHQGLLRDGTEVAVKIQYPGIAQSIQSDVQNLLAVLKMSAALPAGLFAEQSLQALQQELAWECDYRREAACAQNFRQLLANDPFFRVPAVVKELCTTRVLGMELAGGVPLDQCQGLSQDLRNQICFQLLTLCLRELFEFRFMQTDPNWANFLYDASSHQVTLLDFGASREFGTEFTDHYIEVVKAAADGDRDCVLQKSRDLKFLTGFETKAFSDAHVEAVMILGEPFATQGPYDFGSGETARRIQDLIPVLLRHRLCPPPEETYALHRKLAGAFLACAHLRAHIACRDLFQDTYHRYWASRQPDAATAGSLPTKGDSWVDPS

Block 1
Host: mouse
Sample: microsomes or S9
Tested at: 2 µM
Time: 0.5 h
Quantity: remaining compound
CC1CCCC(C)N1C(=O)c1cc(-c2ccccc2)nn1-c1ncccc1-c1ccccc1 (stereo not shown): 0.341%
Cc1cccc(Cn2c3cc(=O)n(CCC4C=Nc5ccccc54)c(C)c3c(=O)n2-c2ccccc2)c1 (stereo not shown): 7.02%
CCCc1ncncc1C(=O)N1CC[C@@](O)(c2ccccc2)[C@H]2CCCC[C@@H]21: 1.1%
CC(NCc1csc(Br)c1)c1cc2ccccc2o1 (stereo not shown): 0.0212%
COCCn1cc2c3c(cccc31)CN(C(=O)Nc1ccccc1C(F)(F)F)CC2: 5.58%
COC(=O)c1nc(N2CCN(C(=O)c3ccco3)CC2)c2scc(-c3ccc(C(=O)O)cc3)c2n1: > 100%
COc1cc2c(cc1OC)C1(c3ccc4c(c3)OCO4)OC(=O)C(=O)N1CC2 (stereo not shown): 4.74%
COc1ccc(N2CC(C(=O)N3CCc4cc(-c5ccno5)ccc43)CC2=O)cc1 (stereo not shown): 76%
CNc1ccc(Nc2ccc(Cl)c(C#N)n2)cn1: 0.00595%
O=C1CCC2=C1C(c1ccccc1)Nc1ccccc1N2 (stereo not shown): 63.2%
N#Cc1cccc(-c2cncc3cc(-c4ccccc4C(=O)O)oc23)c1: 16.1%
Cc1ccc(S(=O)(=O)n2cc(-c3cc(Cl)c(O)c(Cl)c3)c3c(N4CCN(C(=O)c5ccccc5)CC4)ncnc32)cc1: 14.8%
COC(=O)c1cccc2c1CN(c1cccc(C(=O)OC(C)(C)C)c1)C2=O: 78.6%
CC1CCC(NS(=O)(=O)CC(=O)NC(C)CCc2ccc(Br)cc2)CC1 (stereo not shown): 2.17%

Block 2
SMILES: Oc1ccc(Nc2nc(-c3ccc(Cl)cc3)cs2)cc1
Observed: enzyme activity
Action: inhibitor
Tested at: 0.5 µM
Reference: control
Quantity: remaining activity
GRK3 (Homo sapiens, UniProt P35626): 97.6%
OXSR1 (Homo sapiens, UniProt O95747): 88.8%
DAPK2 (Homo sapiens, UniProt Q9UIK4): 107%
MAPK9 (Homo sapiens, UniProt P45984): 98.3%
Cyclin-dependent kinase 5, with p25 (CDK5, Homo sapiens, UniProt Q00535): 85.9%
DAPK1 (Homo sapiens, UniProt P53355): 101%
STK10 (Homo sapiens, UniProt O94804): 96.6%
IKBKE (Homo sapiens, UniProt Q14164): 95.9%
IKBKB (Homo sapiens, UniProt O14920): 104%
STK11 (Homo sapiens, UniProt Q15831): 91.1%
PRKACA (Homo sapiens, UniProt P17612): 105%
CAMKK2 (Homo sapiens, UniProt Q96RR4): 101%
TGFBR1 (Homo sapiens, UniProt P36897): 99.9%
CHEK2 (Homo sapiens, UniProt O96017): 97.9%
STK39 (Homo sapiens, UniProt Q9UEW8): 94.2%
TGFBR2 (Homo sapiens, UniProt P37173): 112%
Protein kinase C beta type, isoform beta-I (PRKCB, Homo sapiens, UniProt P05771): 101%
MAP3K3 (Homo sapiens, UniProt Q99759): 101%
Cyclin-dependent kinase 4, with cyclin D1 (CDK4, Homo sapiens, UniProt P11802): 108%
cGMP-dependent protein kinase 1, isoform beta (PRKG1, Homo sapiens, UniProt Q13976): 94.1%
Tyrosine-protein kinase Lyn, isoform B (LYN, Homo sapiens, UniProt P07948): 100%
CAMK2D (Homo sapiens, UniProt Q13557): 98.8%

Block 3
Target: Diamine acetyltransferase 1 (Homo sapiens, UniProt P21673)
Action: inhibitor
Tested at: 10 µM
Reference: control
Quantity: remaining activity
Target sequence (P21673 1-171): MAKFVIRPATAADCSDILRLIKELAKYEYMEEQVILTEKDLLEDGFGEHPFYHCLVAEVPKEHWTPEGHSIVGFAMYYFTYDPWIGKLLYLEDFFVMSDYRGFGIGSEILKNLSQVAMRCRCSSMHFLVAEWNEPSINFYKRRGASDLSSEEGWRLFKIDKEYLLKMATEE
C/C(=C\C(=O)CC(C)C(=O)O)[C@H]1C[C@H](O)[C@@]2(C)C3=C(C(=O)C[C@]12C)[C@@]1(C)CCC(=O)C(C)(C)[C@@H]1C[C@@H]3O (stereo partly shown): 106%
CCCCCCCC(=O)CCc1ccc(O)c(OC)c1: 83.1%
C=C(C)[C@@H]1CC[C@@]2(C)CCC(=O)C(C)=C2C1: 107%
CCCCCCCC/C=C/C(=O)O: 73.8%
COc1cc(O)c2c(=O)c(O)c(-c3ccc(O)c(O)c3)oc2c1: 95.4%
O=C(O)C1=CO[C@@H](O[C@@H]2O[C@H](CO)[C@@H](O)[C@H](O)[C@H]2O)[C@@H]2C(CO)=CC[C@H]12: 93.5%
CCCCCCCCCCCCCCC(=O)OC: 114%
C[n+]1cc2c3c(ccc2c2ccc4cc5c(cc4c21)OCO5)OCO3: 71.5%
O=c1cc(-c2ccc(O)cc2)oc2c([C@@H]3O[C@H](CO)[C@@H](O)[C@H](O)[C@H]3O)c(O)cc(O)c12: 100%
COc1ccc2cc3[n+](cc2c1O)CCc1cc2c(cc1-3)OCO2: 101%
COc1ccc2[nH]cc(CCNC(C)=O)c2c1: 114%
OC[C@@H](O)[C@H](O)[C@H](O)[C@@H](O)CO: 83.9%

Block 4
SMILES: CC(=O)c1c(NS(C)(=O)=O)c2cc(-c3ccc(Cl)cc3)c(-c3ccc(Cl)cc3Cl)nc2n(C)c1=O
Observed: cell-free assay
Technique: competition with immobilised ligand
Tested at: 1 µM
Quantity: remaining binding
DYRK2 (Homo sapiens, UniProt Q92630): 93%
NEK1 (Homo sapiens, UniProt Q96PY6): 100%
ULK3 (Homo sapiens, UniProt Q6PHR2): 80%
TLK1 (Homo sapiens, UniProt Q9UKI8): 95%
ALK (Homo sapiens, UniProt Q9UM73, L1196M): 97%
MAPK12 (Homo sapiens, UniProt P53778): 100%
MAPK10 (Homo sapiens, UniProt P53779): 78%
WNK1 (Homo sapiens, UniProt Q9H4A3): 88%
Myosin-IIIb (MYO3B, Homo sapiens, UniProt Q8WXR4): 99%
RIOK1 (Homo sapiens, UniProt Q9BRS2): 100%
NEK2 (Homo sapiens, UniProt P51955): 100%
COQ8B (Homo sapiens, UniProt Q96D53): 97%
CDK8 (Homo sapiens, UniProt P49336): 83%
MAPK7 (Homo sapiens, UniProt Q13164): 92%
MAP2K3 (Homo sapiens, UniProt P46734): 96%
AXL (Homo sapiens, UniProt P30530): 100%
TSSK1B (Homo sapiens, UniProt Q9BXA7): 100%
TGFBR2 (Homo sapiens, UniProt P37173): 100%
CSK (Homo sapiens, UniProt P41240): 100%
PDGFRA (Homo sapiens, UniProt P16234): 88%
MTOR (Homo sapiens, UniProt P42345): 100%
MARK3 (Homo sapiens, UniProt P27448): 100%
MINK1 (Homo sapiens, UniProt Q8N4C8): 100%
PIK3CA (Homo sapiens, UniProt P42336, M1043I): 100%
MAPK15 (Homo sapiens, UniProt Q8TD08): 100%
